Measured values of several laboratories.
A part holds a random share of what one study measured.

Set 1
Target: Interferon regulatory factor 5, full length, phosphomimetic (IRF5, Homo sapiens, UniProt Q13568-2, residues 1-514, K96S/S451D/S453D/S456D/S462D)
Method: protein-binding microarray
Form: double-stranded DNA, one strand shown
Matrix: in vitro
Tested at: 250 nM
Setting: 60-bp whole probe
With: salmon DNA 0.4 mg/ml
Relative to: random background probes
Reading: higher = stronger binding
Shared flanks, not repeated: GCCTAGCAC … GTCTTGATTCGCTTGACGCTGCTG
| Sequence | log fluorescence [z-score] |
| --- | --- |
| TCACAACTCGCCTTTTTTACTGTGCTA | 0.502 |
| CACATTGTGCAATCTTAATAAGTGCTA | 0.482 |
| GTCGATATCGGGTTTCGAGACGTGCTA | 5.08 |
| TGGGGTTCACTCCGGTACCCGTGCTAG | -0.505 |
| GACGGACTGCGTATCCTGACGTGCTAG | -0.507 |
| GACGGTCTCGGTTTCTGGACGTGCTAG | 0.887 |
| TTAGGTATCCTACTGCTCTAGTGCTAG | -0.132 |
| TCAAAGATTGCCGTTTCCACTGTGCTA | 0.366 |

Set 2
Target: Fragile X messenger ribonucleoprotein 1, C-terminal low-complexity region (Fmr1, Mus musculus, UniProt P35922)
Method: RNA Bind-n-Seq
Form: RNA
Matrix: in vitro
Tested at: 200 nM
Setting: whole 134-nt RNA, ends assumed
With: 150 mM KCl
Relative to: input library
Reading: higher = stronger binding
| Sequence | log2 enrichment |
| --- | --- |
| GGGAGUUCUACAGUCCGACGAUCUGGGCUGGAUGGCUCAGUUCCCCCAGACCUGGACUGGAAGGGCCAGCCACCUGCACCUCCUAAAAAGGGACUGCUGCAGAGACUCUUCAGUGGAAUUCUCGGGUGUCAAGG | -0.933 |
| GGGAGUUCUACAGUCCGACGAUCCCUGUGCUACACAUCGUAUGUACCGAAUCGGGUUUUUUGGGGUUUUUUGGGUUUUUUGGGAAAGUAUUAUGUUACGCCGUUCGGAUCUGCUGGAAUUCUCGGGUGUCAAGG | -0.139 |
| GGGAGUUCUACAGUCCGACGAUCCACAGACAACACGCACCCACACAGACACAGAGGGAAGGGGUUGGGAUGGGGACAGGGUGCACAGCAGGGCGGGGUAGGAACCCAGCCCCUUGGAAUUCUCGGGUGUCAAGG | 1.28 |
| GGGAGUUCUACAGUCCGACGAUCACCAUGCAGGUGGGCAUCUUAAAGAAGUGGGGCAAGGGGGGGAUAGGGAGGGGGGUAACACUUUGGGAACAGGUGGUCCCAGGUCGUUUCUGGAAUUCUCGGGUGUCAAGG | 1.02 |
| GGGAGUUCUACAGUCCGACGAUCGUCCUGUGCUACACAUCGUAUGUACCGAAUCGGGGAAAGGGGUGGGGAAAAAAAGGGGAAAGUAUUAUGUUACGCCGUUCGGAUCUGCACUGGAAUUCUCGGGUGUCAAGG | 0.333 |

Set 3
Target: Histone acetyltransferase KAT6A, both winged helices, GST fusion (KAT6A, Homo sapiens, UniProt Q92794, residues 1-181)
Method: protein binding microarray
Form: double-stranded DNA, one strand shown
Matrix: in vitro
Tested at: not given
Setting: 8-mer, flanks averaged, mean of 2 arrays, mostly near background
Relative to: not given
Reading: higher = stronger binding
Construct (chain): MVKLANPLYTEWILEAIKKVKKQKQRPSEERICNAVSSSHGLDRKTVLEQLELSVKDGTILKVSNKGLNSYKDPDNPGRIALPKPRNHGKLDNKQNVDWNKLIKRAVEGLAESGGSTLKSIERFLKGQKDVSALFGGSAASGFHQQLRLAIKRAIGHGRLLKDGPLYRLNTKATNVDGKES
| Sequence | E-score |
| --- | --- |
| AAACAGAA | -0.122 |
| ACAATCCT | -0.128 |
| CGAATACA | -0.0191 |
| ATCGCCTA | 0.0153 |
| AATAGTAT | -0.138 |
| CCCTTTAA | 0.00047 |

Mixed results
| Substance | target | test | system | conditions | scale | measurement | result |
| --- | --- | --- | --- | --- | --- | --- | --- |
| PhoQ, residues 284 288 289 292 302 303 SQSLSM | PhoP, residues 12 14 15 18 19 LHHSG (Escherichia coli, UniProt P23836) | Sort-seq, refers to: YFP reporter | E. coli | PhoQ-PhoP variant library, with: 10 µM Mg2+ | relative to: high Mg2+ state, higher = stronger signaling | fold induction | 16 |
